Results collected from several papers.
Numbers after ± are the reported error.
SLC10A1: Hepatic sodium/bile acid cotransporter (SLC10A1, Homo sapiens, UniProt Q14973)
CXCR4: C-X-C chemokine receptor type 4 (CXCR4, Homo sapiens, UniProt P61073)
Protein farnesyltransferase: Protein farnesyltransferase (Homo sapiens, UniProt P49354+P49356)
UGT1A9: UDP-glucuronosyltransferase 1A9 (UGT1A9, Homo sapiens, UniProt O60656)
Enoyl-[acyl-carrier-protein] reductase [NADPH] FabI: Enoyl-[acyl-carrier-protein] reductase [NADPH] FabI (Staphylococcus aureus, UniProt Q6GI75)
T1: DNA:RNA hybrid triplex, strand 1 RNA, strand 2 DNA; chain A; chain T
T2: RNA aptamer; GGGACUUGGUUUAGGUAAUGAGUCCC

N.N.N.O=c1[nH]c(=O)n([C@@H]2O[C@H](COP(=O)(O)OP(=O)(O)O)[C@@H](O)[C@H]2O)cc1I — breakthrough time change (Uracil nucleotide/cysteinyl leukotriene receptor, short isoform (GPR17, Homo sapiens, UniProt Q13304, R283I); frontal affinity chromatography-MS; mutated receptor IAM column; concentration not given; reference: wild type column): -10%
CCCc1cc(-c2cncc(OC[C@@H](N)Cc3c[nH]c4ccccc34)c2)cc2c(C)n[nH]c12 — kinase activity (RAC-alpha serine/threonine-protein kinase (AKT1, Homo sapiens, UniProt P31749, M227G); enzyme activity, immunoprecipitation kinase; HEK293; 2.5 µM, 30 min, hyperphosphorylated analogue-sensitive Akt1; reference: untreated): ~10 fold
CCC/C=C\C=O — remaining 1-NPN fluorescence (Chilo suppressalis CSP2; binding, competitive ligand, fluorescence competitive binding; highest concentration tested, pH 7.4, protein 2 µM, added: 1-NPN 2 µM; reference: no ligand): 49.1 ± 1.64%
CCC(C)n1ncn(-c2ccc(N3CCN(c4ccc(OCC5COC(Cn6cncn6)(c6ccc(Cl)cc6Cl)O5)cc4)CC3)cc2)c1=O (stereo not shown) — taurocholate uptake (SLC10A1; inhibitor; NTCP-HEK293; 25 µM; reference: without compound): 81.8 ± 5.6%
insulin icodec — albumin binding affinity ratio (human serum albumin; radioligand binding; HSA-agarose; reference: compound over insulin detemir): 9.5 ± 0.6 fold
KQTARKSTGGWW (acetyl-Lys9) — kcat/Km (Histone deacetylase 8 (HDAC8, Homo sapiens, UniProt Q9BY41); substrate, HPLC; peptide; 1 µM, 1 h, pH 8, 37 °C): 58 ± 1.1 M⁻¹ s⁻¹
O=C(NCc1ccc(CNS(=O)(=O)c2ccccc2)cc1)c1ccc(CNc2ncccn2)cc1 — lowest effective concentration (CXCR4; binding, competitive inhibitor, competitive binding; MDA-MB-231; semi-quantitative rhodamine readout, added: biotinylated TN14003): 1 nM
N=C(N)c1ccc(N=NNc2ccc(C(=N)N)cc2)cc1 — melting temperature (T1, DNA:RNA hybrid triplex, strand 1 RNA, strand 2 DNA; UV melting; 20 µM, NaCl 18 mM, no triplex without ligand): 34.2 °C
CQLL — relative fluorescence increase (Protein farnesyltransferase; enzyme activity, substrate, fluorimetric; peptide; 3 µM, 30 min, added: 9 µM farnesyl diphosphate; reference: dansyl-GCVLS (set to 1.0)): 0
COc1ccc([C@@H]2Sc3ccccc3N(CCN(C)C)C(=O)[C@@H]2OC(C)=O)cc1 — taurocholate uptake (SLC10A1; inhibitor; HEK293 expressing NTCP; 100 µM, 5 min, added: taurocholate 10 µM; reference: no compound): 87.5 ± 5.9%
CN(Cc1ccc(CN(C)Cc2cccnc2)cc1)Cc1cccnc1 — lowest effective concentration (CXCR4; binding, competition binding; MDA-MB-231; semi-quantitative screen, added: biotinylated TN14003): > 1000 nM
CPIL — relative fluorescence increase (Protein farnesyltransferase; enzyme activity, substrate, fluorimetric; peptide; 3 µM, 30 min, added: 9 µM farnesyl diphosphate; reference: dansyl-GCVLS (set to 1.0)): < 0.05
Ac-EVVYLIIRACARRAQRRSNP-NH2 (N-acetyl, C-amide) — koff (Calmodulin-1 (CALM1, Homo sapiens, UniProt P0DP23, D23A/D59A); Ca2+ dissociation EF3, stopped flow; peptide; 10 µM, pH 7.0, 21 °C, added: CaM12 mutant): 3.1 ± 0.1 s⁻¹
O=C(Cn1c2ccccc2c2ccncc21)N(c1ccc(F)cc1)c1ccc(F)cc1 — maximum fold increase (Proteasome subunit alpha type-2/Proteasome subunit alpha type-6, 20S proteasome (Homo sapiens, UniProt P25787+P60900); proteolysis, activator, fluorogenic peptide; purified 20S proteasome; up to 30 µM, added: Suc-LLVY-AMC, Z-LLE-AMC, Boc-LRR-AMC; reference: vehicle): 5.5
CC[C@H](C)[C@H](NC(=O)[C@H](C)NC(=O)[C@H](CCCNC(=N)N)NC(=O)[C@H](Cc1c[nH]cn1)NC(=O)[C@@H](NC(=O)[C@H](CCCNC(=N)N)NC(=O)[C@@H]1CCCN1C(=O)[C@@H](NC(=O)[C@H](CCC(N)=O)NC(=O)CN)C(C)C)[C@@H](C)O)C(=O)N[C@H](C(=O)N[C@@H](CC(C)C)C(=O)N[C@@H](C)C(=O)N[C@@H](CC(=O)O)C(=O)N[C@@H](Cc1c[nH]cn1)C(=O)N[C@H](C(=O)N[C@@H](CS)C(=O)N[C@@H](CCC(N)=O)C(=O)N[C@H](C(=O)N[C@H](C(=O)N[C@H](C(=O)N[C@@H](CCC(N)=O)C(=O)N[C@@H](CC(=O)O)C(=O)N[C@@H](Cc1ccccc1)C(=O)N[C@@H](C)C(=O)N[C@@H](CCCNC(=N)N)C(=O)O)[C@@H](C)O)[C@@H](C)CC)[C@@H](C)CC)[C@@H](C)CC)[C@@H](C)O — IC50 fold change (Nuclear receptor subfamily 1 group D member 1 (NR1D1, Homo sapiens, UniProt P20393); NCoR peptide binding, competitor, TR-FRET; 1 h, added: labelled NCoR 2040-2065 peptide; reference: mutant over wild-type peptide): 2.5
O=C1C[C@@H](c2ccc(O)cc2)Oc2cc(O)cc(O)c21 — Vmax (UGT1A9; substrate; pH 7.4, 37 °C): 5000 pmol/mg/min
O=C(O)[C@H]1O[C@@H](O[C@H]2c3cc4ccc5cccc6c7ccccc7c(c3C=C[C@@H]2O)c4c56)[C@H](O)[C@@H](O)[C@@H]1O (relative stereo) — kcat (UDP-glucuronosyltransferase 1A10 (UGT1A10, Homo sapiens, UniProt Q9HAW8); glucuronidation, substrate; UGT-expressing HEK293 homogenate; normalized to UGT expression): 0.005 ± 0.0005 s⁻¹
NC[C@H]1O[C@H](O[C@H]2[C@H](O)[C@@H](O[C@H]3O[C@H](CO)[C@@H](O)[C@H](N)[C@H]3O)[C@H](N)C[C@@H]2N)[C@H](N)C[C@@H]1O — Kd (T2, RNA aptamer; square wave voltammetry; apparent, on gold electrode, electrochemical aptamer sensor): 23 µM
N#Cc1ccccc1Oc1ccc(Br)cc1O — Ki (Enoyl-[acyl-carrier-protein] reductase [NADPH] FabI; enzyme activity, inhibitor, progress curve kinetics, refers to: NADPH): 5e-05 µM
CCCCCC/C=C\CCCCCCCC=O — remaining 1-NPN fluorescence (chemosensory protein 1 (Chilo suppressalis, UniProt V9PY22); binding, competitive ligand, fluorescence competitive binding; highest concentration tested, pH 7.4, protein 2 µM, added: 1-NPN 2 µM; reference: no ligand): 44.8 ± 2.25%
Nc1nc(N)c2nc(-c3ccccc3)c(N)nc2n1 — taurocholate uptake (SLC10A1; inhibitor; HEK293 expressing NTCP; 100 µM, 5 min, added: taurocholate 10 µM; reference: no compound): 85.7 ± 4.3%
Cc1ccc(C(Nc2ccc(C(=O)O)cc2)c2ccc3cccnc3c2O)cc1 (stereo not shown) — remaining activity (CAAX prenyl protease 2 (Homo sapiens, UniProt Q9Y256); enzyme activity, inhibitor; 10 µM): 23 to 32%
O=c1ccn([C@@H]2O[C@H](CO[P@@](=O)(O)O[P@@](=O)(O)OP(=O)(O)O)[C@@H](O)[C@H]2O)c(=O)[nH]1 (stereo in doubt) — bound fraction (Albumin (ALB, Homo sapiens, UniProt P02768); binding, native ESI-FT-ICR MS; 3 µM, saturation curve): 0.836 ± 0.018
O=c1cc(-c2ccccc2)oc2cc(O)c(O)c(O)c12 — Vmax (UGT1A9; substrate; pH 7.4, 37 °C): 5310 pmol/mg/min
Cc1ccccc1S(=O)(=O)NCc1ccc(CNC(=O)c2ccc(F)cc2)cc1 — lowest effective concentration (CXCR4; binding, competitor, rhodamine fluorescence; MDA-MB-231; semi-quantitative screen, added: biotinylated TN14003): 100 nM
CC1N=C2C(=O)N=C(N)N=C2NC1C (stereo not shown) — Ki (Pteridine reductase 1 (Leishmania major, UniProt Q01782); substrate inhibition, substrate, NADPH oxidation; pH 7.4, 25 °C, substrate made in situ, added: NADPH 50 µM): 92.2 ± 18.9 µM
N#Cc1ccccc1Oc1ccc(Cl)cc1O — dissociation rate constant (Enoyl-[acyl-carrier-protein] reductase [NADPH] FabI; enzyme activity, inhibitor, progress curve kinetics): 0.44 ± 0.02 h⁻¹
CN(C)C/C=C/C(=O)Nc1cccc(C(=O)Nc2ccc(Nc3nccc(-c4c(-c5ccccc5)nn5ccccc45)n3)cc2)c1 — inhibition (Phosphatidylinositol 3-kinase catalytic subunit type 3 (PIK3C3, Homo sapiens, UniProt Q8NEB9); ATP-biotin probe labeling, KiNativ; A-375; 1 µM, 3 h, second of two sites): -11%
CCCCCCCCCCCCCC(C)=O — fluorescence intensity (Chilo suppressalis CSP2; binding, competitive fluorescence displacement; 30 µM, pH 7.4): 49.4 ± 3.91%
OC[C@H]1OC(O)[C@H](O)[C@@H](O)[C@H]1O (stereo partly shown) — uptake inhibition (Glucose transporter 4 (Clonorchis sinensis, UniProt G7YT60); [3H]deoxy-D-glucose uptake; Clonorchis sinensis, Xenopus oocytes; 10 mM, pH 7.4): 24 ± 1.9%
CQNL — relative fluorescence increase (Protein farnesyltransferase; enzyme activity, substrate, fluorimetric; peptide; 3 µM, 30 min, added: 9 µM farnesyl diphosphate; reference: dansyl-GCVLS (set to 1.0)): 0
Cc1ccc(-n2sc(=O)n(Cc3ccc(F)cc3)c2=O)cc1 — loss of potency after treatment (Regulator of G-protein signaling 8 (Homo sapiens, UniProt P57771); Gαo binding, inhibitor, FCPIA after gel filtration; concentration not given; reference: vehicle-treated protein): 14 fold
CCCCCCCCCCCC(C)=O — fluorescence intensity (Chilo suppressalis CSP2; binding, competitive fluorescence displacement; 30 µM, pH 7.4): 46 ± 0.77%
O=C1CCN1C(=O)OCc1ccccc1 — phosphopantetheine acylation (Erythronolide synthase EryA2, module 3 ACP, holo (eryA, Saccharopolyspora erythraea, UniProt Q03132); substrate, LC-MS of tryptic digest; 10 equivalents, 1 h, pH 7, room temperature): ~80%

Excerpt of the above:
OC[C@H]1OC(O)[C@H](O)[C@@H](O)[C@H]1O (stereo partly shown) — uptake inhibition (Glucose transporter 4 (Clonorchis sinensis, UniProt G7YT60); [3H]deoxy-D-glucose uptake; Clonorchis sinensis, Xenopus oocytes; 10 mM, pH 7.4): 24 ± 1.9%
Cc1ccc(-n2sc(=O)n(Cc3ccc(F)cc3)c2=O)cc1 — loss of potency after treatment (Regulator of G-protein signaling 8 (Homo sapiens, UniProt P57771); Gαo binding, inhibitor, FCPIA after gel filtration; concentration not given; reference: vehicle-treated protein): 14 fold
CCCc1cc(-c2cncc(OC[C@@H](N)Cc3c[nH]c4ccccc34)c2)cc2c(C)n[nH]c12 — kinase activity (RAC-alpha serine/threonine-protein kinase (AKT1, Homo sapiens, UniProt P31749, M227G); enzyme activity, immunoprecipitation kinase; HEK293; 2.5 µM, 30 min, hyperphosphorylated analogue-sensitive Akt1; reference: untreated): ~10 fold
